Published values from different studies.
Compare with care: the assays were run in different laboratories.
Cell line: SK-MEL-5

| Structure (SMILES) | assay | setting | how to read | quantity | value |
| --- | --- | --- | --- | --- | --- |
| C#C[C@@]1(O)[C@@H](CO)O[C@@H](n2cc(F)c3c(N)ncnc32)[C@@H]1O | SRB | NCI-60 screen |  | TGI | 1.33 µM |
| Cn1cncc1C1=CN(c2ncnc3[nH]cnc23)CCS1 |  | melanoma cell line |  | GI50 | 22.9 µM |
| O=C(Nc1nnc2n3c(nc(-c4ccc(Cl)cc4)c1-2)SCC3=O)c1ccccc1 | SRB | 10 µM, NCI60 single-dose screen | reference: untreated | cell growth | 96.3% |
| CCCN1CCN(c2ccc3[nH]c(-c4ccc5[nH]c(-c6ccc(OCC)c(OCC)c6)nc5c4)nc3c2)CC1 | SRB | 10 µM, 48 h |  | growth percent | -93.9% |
| O=c1ccn(Cc2cn(-c3cc4ccccc4oc3=O)nn2)c(=O)[nH]1 | NCI60 single-dose screen | 10 µM |  | growth percentage | 96.8% |
| CCCCN1CCN(c2ccc3[nH]c(-c4ccc5[nH]c(-c6cc(OC)c(OC)c(OC)c6)nc5c4)nc3c2)CC1 | SRB | 10 µM, 48 h |  | growth percent | 44.8% |
| Cc1n[nH]c2nc(-c3ccc(Cl)cc3)c3c(NC(=O)c4ccccc4)nnc-3n12 | SRB | 10 µM, NCI60 single-dose screen | reference: untreated | cell growth | 100% |
| Cc1cc(=O)[nH]c(=O)n1Cc1cn(-c2cc3ccccc3oc2=O)nn1 | NCI60 single-dose screen | 10 µM |  | growth percentage | 100% |
| O=C(Nc1nnc2[nH]c(=S)[nH]c(-c3ccc(Cl)cc3)c1-2)c1ccccc1 | SRB | 10 µM, NCI60 single-dose screen | reference: untreated | cell growth | 96.2% |
| CCCN1CCN(c2ccc3[nH]c(-c4ccc5[nH]c(-c6cc(OC)c(OC)c(OC)c6)nc5c4)nc3c2)CC1 | SRB | 10 µM, 48 h |  | growth percent | 41.3% |
| CCN(CC)c1ccc(C=NNC(=O)CSc2nc3ccccc3c(=O)n2Cc2ccc(S(N)(=O)=O)cc2)c(O)c1 | NCI five-dose screen |  |  | TGI | 4.97 µM |
| CCCN1CCN(c2ccc3[nH]c(-c4ccc5[nH]c(-c6ccc(C(F)(F)F)cc6)nc5c4)nc3c2)CC1 | SRB | 10 µM, 48 h |  | growth percent | 37.2% |
| CC[C@H](C)[C@H](NC(=O)[C@H](CCCCN)NC(=O)[C@@H](NC(=O)[C@H](CCCNC(=N)N)NC(=O)[C@@H](NC(=O)[C@@H](CCCNC(=N)N)NC(=O)[C@@H](CCCNC(=N)N)NC(=O)[C@@H](CCCNC(=N)N)NC(=O)[C@@H](CCCNC(=N)N)NC(=O)[C@@H](CCCNC(=N)N)NC(=O)[C@H](N)CCCNC(=N)N)[C@@H](C)O)[C@@H](C)O)C(=O)N[C@@H](CC(=O)O)C(=O)N[C@@H](Cc1c[nH]c2ccccc12)C(=O)NC(C)(C)C(=O)N[C@@H](CCCCN)C(=O)N[C@H](C(=O)N[C@@H](CC(C)C)C(=O)NC(C)(C)C(=O)N[C@@H](CCCCN)C(=O)NCCCCCC(=O)NCCCC[C@H](NC(=O)CCCCCNC(=O)[C@H](CCCCN)NC(=O)C(C)(C)NC(=O)[C@H](CC(C)C)NC(=O)[C@@H](NC(=O)[C@H](CCCCN)NC(=O)C(C)(C)NC(=O)[C@H](Cc1c[nH]c2ccccc12)NC(=O)[C@H](CC(=O)O)NC(=O)[C@@H](NC(=O)[C@H](CCCCN)NC(=O)[C@@H](NC(=O)[C@H](CCCNC(=N)N)NC(=O)[C@@H](NC(=O)[C@@H](CCCNC(=N)N)NC(=O)[C@@H](CCCNC(=N)N)NC(=O)[C@@H](CCCNC(=N)N)NC(=O)[C@@H](CCCNC(=N)N)NC(=O)[C@@H](CCCNC(=N)N)NC(=O)[C@H](N)CCCNC(=N)N)[C@@H](C)O)[C@@H](C)O)[C@@H](C)CC)[C@@H](C)CC)C(N)=O)[C@@H](C)CC | Western blot | 10 µM, within 0.5 to 2 h |  | Akt, ERK, Stat3 phosphorylation | inhibited |
